# Results of several laboratories.
# Protocols differ between the studies behind these lines.
# UCHL1: Ubiquitin carboxyl-terminal hydrolase isozyme L1 (UCHL1, Homo sapiens, UniProt P09936)
# Sequence of UniProt P09936 (whole entry, looked up): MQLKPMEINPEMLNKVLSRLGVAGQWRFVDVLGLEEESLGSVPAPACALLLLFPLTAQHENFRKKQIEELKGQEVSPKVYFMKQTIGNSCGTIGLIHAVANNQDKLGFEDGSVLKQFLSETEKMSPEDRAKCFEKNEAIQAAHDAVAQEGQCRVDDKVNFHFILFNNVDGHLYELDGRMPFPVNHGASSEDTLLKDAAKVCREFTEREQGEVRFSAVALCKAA
Structure (SMILES),tested on,test,system,setting,endpoint,value
CCOc1c([C@H](C)n2nc(C)c3c(N)ncnc32)cc(Cl)c(F)c1[C@@H]1CNC(=O)C1,,refers to: QRS >100 to ≤110 ms,previously treated B-cell malignancy,"oral, 5 mg once daily, baseline below thresholds",patients,0%
C=CC(=O)NC1CCN(c2ncc3ncnc(Nc4ccc(Oc5ccc6c(c5)ncn6C)c(C)c4)c3n2)CC1,,,male patients,"oral, dose not given, on-treatment adverse events",patients with ALT increased,0%
O=C(Nc1nc2cccc(-c3ccc(CN4CCS(=O)(=O)CC4)cc3)n2n1)C1CC1,,refers to: abdominal pain upper,rheumatoid arthritis patients,"oral, 100 mg twice daily, 4 weeks",patients with TEAE,0%
COc1cc(Nc2ncc3c(n2)-c2ccc(Cl)cc2C(c2c(F)cccc2OC)=NC3)ccc1C(=O)O,,"refers to: Hypoxia, grade 3","cancer patients, phase 1/2","oral, dose not given, together with: pembrolizumab",patients with adverse event,4%
CNC(=O)c1ccc(-c2cnc3ncc(Cc4ccc5ncccc5c4)n3n2)cc1F,,refers to: Dizziness,other cancer patients,"oral, 600 mg twice daily, expansion cohort, grade 3-4",patients with adverse event,0%
Cc1cc(NC2CCN(C(=O)OC3CCN(C(=O)/C=C/CN(C)C)C3)CC2)n2ncc(C(C)C)c2n1 (centres unmarked),,"Phase I dose escalation CTCAE v4.0, refers to: dermatitis acneiform",patients with advanced solid tumours,"dose not given, Total dosing grade 3 or higher",patients with adverse event,0%
C[C@@H](Nc1cc(F)cc(F)c1)c1cc(C(=O)N(C)C)cc2c(=O)cc(N3CCOCC3)oc12,,"CTCAE v4, refers to: muscular weakness",patients with advanced solid tumours,"oral, dose not given, phase I dose finding",patients with related SAE,1.6%
C=CC(=O)Nc1cc(Nc2nccc(-c3cn(C)c4ccccc34)n2)c(OC)cc1N(C)CCN(C)C,,refers to: Fatigue grade ≥3,EGFR-mutant MET-altered NSCLC,"oral, dose not given, study",patients with treatment-related AEs,0%
CNC(=O)c1cc(Oc2ccc(NC(=O)Nc3cc(C(C)(C)C)nn3-c3ccc4ncccc4c3)c(F)c2)ccn1,,,patients,"oral, dose not given, cycles 1 and 2, High AUC subgroup",patients with grade 3 cardiac disorders,6%
COC(=O)C(C#N)=Cc1cccc(F)c1,UCHL1,"covalent, intact protein LC-MS",,12.5 µM,labelling,15.6%
COc1ccc([C@@H](O)c2cc(-c3ncnc4cc(N5CCOCC5)ccc34)c(F)cc2Cl)nn1,,refers to: Proctalgia,locally advanced rectal cancer patients,"dose not given, all dose groups, together with: capecitabine plus radiotherapy",patients with TEAE,37%
FC(F)(F)c1ccc(CNc2ccc(Cc3c[nH]c4ncc(Cl)cc34)cn2)cn1,,refers to: hair colour changes,non-TGCT solid tumour patients,"oral, 1000 mg/day, all grades",patients with treatment-related adverse event,31%
Cc1cc(-c2nnc(N)nc2-c2ccc(F)cc2)cc(Cl)n1,,refers to: hypothyroidism,post-IO other solid tumour patients,"oral, 100 mg once daily, treatment-related, grade 2",patients with immune-mediated AE,4.8%
N#CC(=Cc1cccc2ccccc12)C(=O)NCc1ccccc1,UCHL1,"covalent, intact protein LC-MS",,12.5 µM,labelling,12.7%

# For quick reference, copied from above:
Structure (SMILES),tested on,test,system,setting,endpoint,value
N#CC(=Cc1cccc2ccccc12)C(=O)NCc1ccccc1,UCHL1,"covalent, intact protein LC-MS",,12.5 µM,labelling,12.7%
